Assay results of several laboratories.
Protocols differ between the studies behind these lines. ± marks the error that the study gave. Values after ≈ are worked out from the molar mass of the structure shown.
Organism: Botrytis cinerea

Compound | assay | test system | conditions | measurement | result
C#CCN1C(=O)C(CC#C)(C(=O)OCC)Oc2ccccc21 (stereo not drawn) | microbial growth | – | 50 µg/mL | inhibition | < 25%
Cc1cc(C(=O)NCC(F)(F)c2ccc(Cl)cc2Cl)c(Oc2cccc(C3CC3)c2)nn1 | fungal growth, inhibitor | B05.10 wild type | 168 h | EC50 | 4.8 ± 2.1 nM
C[C@@H](O)[C@H](NC(=O)[C@H](CS)NC(=O)[C@H](Cc1ccccc1)NC(=O)[C@H](CS)NC(=O)[C@H](CCCNC(=N)N)NC(=O)[C@H](CCCNC(=N)N)NC(=O)[C@H](CCCNC(=N)N)NC(=O)[C@H](Cc1ccccc1)NC(=O)CNC(=O)[C@H](CCCNC(=N)N)NC(=O)[C@H](CS)NC(=O)[C@H](CCCNC(=N)N)NC(=O)CNC(=O)CN)C(=O)N[C@H](C(=O)N[C@@H](Cc1c[nH]cn1)C(=O)N[C@@H](CS)C(=O)O)[C@@H](C)O | grey mould lesion size | detached Nicotiana benthamiana leaves | 48 h post-inoculation | lowest effective concentration | 3 µM
CC[C@H](C)[C@@H]1NC(=O)[C@H](CCCNC(=N)N)NC(=O)[C@H]([C@@H](C)O)NC(=O)[C@H](Cc2c[nH]c3ccccc23)NC(=O)[C@H](Cc2ccccc2)NC(=O)[C@H](Cc2c[nH]c3ccccc23)NC(=O)[C@H](CCCNC(=N)N)NC(=O)[C@H](CCCNC(=N)N)NC(=O)[C@H](CCCNC(=N)N)NC(=O)[C@H](Cc2ccccc2)NC(=O)CNC(=O)[C@H](CCCCN)NC(=O)[C@@H](NC(=O)[C@H](CCCNC(=N)N)NC(=O)CNC(=O)CN)CSSC[C@@H](C(N)=O)NC1=O | resazurin | synthetic fungal medium | together with: CaCl2 2 mM | MIC | 3 µM (≈ 6.55 µg/mL)
C=CCN1C(=O)C(CC=C)(C(=O)OCC)Oc2cc(F)ccc21 (stereo not drawn) | microbial growth | – | 200 µg/mL | inhibition | > 50%
Cc1ccc(C(F)(F)CNC(=O)c2cc(Cl)nnc2Oc2cccc(C(F)(F)F)c2)c(C)c1 | fungal growth, inhibitor | B05.10 wild type | 168 h | EC50 | 10.4 ± 0.7 nM
C[C@@H](O)[C@H](NC(=O)[C@@H](N)CCCNC(=N)N)C(=O)N[C@@H](CS)C(=O)N[C@@H](CCC(=O)O)C(=O)N[C@@H](CO)C(=O)N[C@@H](CCC(N)=O)C(=O)N[C@@H](CO)C(=O)N[C@@H](Cc1c[nH]cn1)C(=O)N[C@@H](CCCCN)C(=O)N[C@@H](Cc1ccccc1)C(=O)N[C@@H](CCCCN)C(=O)NCC(=O)N1CCC[C@H]1C(=O)N[C@@H](CS)C(=O)O | grey mould lesion size | detached Nicotiana benthamiana leaves | 48 h post-inoculation | lowest effective concentration | > 24 µM
CC[C@H](C)[C@@H]1NC(=O)[C@H](CCCNC(=N)N)NC(=O)[C@H]([C@@H](C)O)NC(=O)[C@H](C(C)C)NC(=O)[C@H](Cc2ccccc2)NC(=O)[C@H](C(C)C)NC(=O)[C@H](CCCNC(=N)N)NC(=O)[C@H](CCCNC(=N)N)NC(=O)[C@H](CCCNC(=N)N)NC(=O)[C@H](Cc2ccccc2)NC(=O)CNC(=O)[C@H](CCCCN)NC(=O)[C@@H](NC(=O)[C@H](CCCNC(=N)N)NC(=O)CNC(=O)CN)CSSC[C@@H](C(N)=O)NC1=O | resazurin | synthetic fungal medium | together with: NaCl 100 mM | MIC | 1.5 to 3 µM (≈ 3.01 to 6.03 µg/mL)
Cc1cc(C(=O)NCC(F)c2ccc(Cl)cc2Cl)c(Oc2cccc(C3CC3)c2)nn1 (stereo not drawn) | fungal growth, inhibitor | B05.10 wild type | 168 h | EC50 | 8.5 ± 0.4 nM

Repeated from above:
Compound | assay | test system | conditions | measurement | result
CC[C@H](C)[C@@H]1NC(=O)[C@H](CCCNC(=N)N)NC(=O)[C@H]([C@@H](C)O)NC(=O)[C@H](Cc2c[nH]c3ccccc23)NC(=O)[C@H](Cc2ccccc2)NC(=O)[C@H](Cc2c[nH]c3ccccc23)NC(=O)[C@H](CCCNC(=N)N)NC(=O)[C@H](CCCNC(=N)N)NC(=O)[C@H](CCCNC(=N)N)NC(=O)[C@H](Cc2ccccc2)NC(=O)CNC(=O)[C@H](CCCCN)NC(=O)[C@@H](NC(=O)[C@H](CCCNC(=N)N)NC(=O)CNC(=O)CN)CSSC[C@@H](C(N)=O)NC1=O | resazurin | synthetic fungal medium | together with: CaCl2 2 mM | MIC | 3 µM (≈ 6.55 µg/mL)
